# Measured values from different studies.
# Compare with care: the assays were run in different laboratories.
# EGFR: Epidermal growth factor receptor (EGFR, Homo sapiens, UniProt P00533)
# EGFR del747-752/P753S: Epidermal growth factor receptor (EGFR, Homo sapiens, UniProt P00533, del747-752/P753S)
# EGFR L858R: Epidermal growth factor receptor (EGFR, Homo sapiens, UniProt P00533, L858R)
# EGFR G719C: Epidermal growth factor receptor (EGFR, Homo sapiens, UniProt P00533, G719C)
Compound,target,effect on,technique,tested at,baseline,remaining binding
CNC1C[S+]2CC[S+]3CC[S+](C1)[Ru-4]321([N]=C=S)[n]2c3ccc(OC)cc3c3c4c(c5cc(F)c[n+]1c5c32)C(=O)NC4=O (centres unmarked),EGFR,,KinomeScan,0.1 µM,untreated,100%
CNC(=O)C1CCN(c2cc(C)c(F)cc2NC(=O)c2ccc(-c3cc(O)ccc3C)c(C)c2)CC1,EGFR del747-752/P753S,binding,competition with immobilised ligand,1 µM,,49%
CCN1CCN(Cc2ccc(C(=O)Nc3ccc(C)c(NCc4cnc5[nH]ccc5c4OC)c3)cc2C(F)(F)F)CC1,EGFR del747-752/P753S,binding,competition with immobilised ligand,1 µM,,3.5%
Nc1ncc2c(n1)-c1c([nH]c3ccc(C4=CCOCC4)cc13)CCC2,EGFR L858R,binding,competition with immobilised ligand,1 µM,,67%
COc1c(Cl)cccc1Nc1c(-c2ccncc2C#C[C@@]2(C)CCCN2C(=O)/C=C/CN(C)C)[nH]c2c1C(=O)NCC2,EGFR G719C,cell-free assay,competition with immobilised ligand,3 µM,,0%
CNS(=O)(=O)Nc1nccc(Cc2c(C)c3ccc(Oc4ncccc4F)cc3oc2=O)c1F,EGFR L858R,cell-free assay,competition with immobilised ligand,10 µM,,90%
CCN1CCN(Cc2ccc(NC(=O)c3ccc(C)c(NC(=O)c4cncc(-c5cccs5)c4)c3)cc2C(F)(F)F)CC1,EGFR del747-752/P753S,binding,competition with immobilised ligand,1 µM,,0.3%
C=CC(=O)N1CCc2ccc(-n3c(=O)ccc4cnc5ccc(-c6cnn(C)c6)cc5c43)cc21,EGFR G719C,,KINOMEscan,1 µM,DMSO control,64%
CC(=O)N1c2ccc(-c3ccc(CNC(=O)c4cn5cc(-c6cnc(N)nc6)nc(N6CCOCC6)c5n4)cc3)cc2CC[C@@H]1C,EGFR,,KINOMEscan,10 µM,,96%
CC(C)=CC1OC(C)(C)C2C=C3C(=O)C(Cl)=CC(O)C3C3C(O)C4OC4C(=O)C132 (centres unmarked),"Epidermal growth factor receptor (EGFR, Homo sapiens, UniProt P00533, G719S)",cell-free assay,competition with immobilised ligand,10 µM,,98%
CN1CCN(Cc2ccc(NC(=O)c3cccc(C#Cc4cnc(N)c5ncccc45)c3)cc2C(F)(F)F)CC1,EGFR L858R,cell-free assay,competition with immobilised ligand,50 nM,,65%
